Measured values of several laboratories.
Protocols differ between the studies behind these lines. Values joined by “and” are separate records of one study, mostly repeats; a detail may differ. ± gives the spread as reported.

For CC[C@H](C)[C@H](NC(=O)[C@H](Cc1ccccc1)NC(=O)[C@H](CCC(=O)O)NC(=O)[C@H](CCCNC(=N)N)NC(=O)[C@H](C)NC(=O)[C@H](C)NC(=O)[C@H](CCC(N)=O)NC(=O)[C@H](CCC(=O)O)NC(=O)[C@H](CCC(=O)O)NC(=O)[C@H](CC(C)C)NC(=O)[C@H](Cc1ccc(O)cc1)NC(=O)[C@H](CO)NC(=O)[C@H](CO)NC(=O)[C@@H](NC(=O)[C@H](CC(=O)O)NC(=O)[C@H](CO)NC(=O)[C@@H](NC(=O)[C@H](Cc1ccccc1)NC(=O)[C@@H](NC(=O)CNC(=O)[C@H](CCC(=O)O)NC(=O)[C@H](C)NC(=O)CCc1c[nH]cn1)[C@@H](C)O)[C@@H](C)O)C(C)C)C(=O)N[C@@H](C)C(=O)N[C@@H](Cc1c[nH]c2ccccc12)C(=O)N[C@@H](CC(C)C)C(=O)N[C@H](C(=O)N[C@@H](CCCNC(=N)N)C(=O)NCC(=O)N[C@@H](CCCNC(=N)N)C(=O)N[C@@H](CCCCNC(=O)COCCOCCNC(=O)COCCOCCNC(=O)CC[C@H](NC(=O)CCCCCCCCCCCCCCCCC(=O)O)C(=O)O)C(=O)O)C(C)C, “terminal elimination rate constant” read 0.0532 h⁻¹ (UPLC-MS; rat, plasma; subcutaneous, 20 nmol/kg).
Cc1cc(-c2ccc3cc[nH]c(=O)c3c2)ccc1O[C@H]1O[C@H](CO)[C@@H](O)[C@H](O)[C@@H]1O has a terminal half-life of 0.279 h and 0.284 h and 0.278 h (Sprague-Dawley rat, male, plasma; intravenous, 3 mg/kg).
The terminal half-life of O=C1c2ccccc2C(=O)N1CCCN1CCN(C(c2ccc(F)cc2)c2ccc(F)cc2)CC1 is reported as 8.48 ± 4.78 h (male Sprague-Dawley rat, whole blood; oral, 10 mg/kg).
For O=C1c2ccncc2C(=O)c2c1[nH]c1ccccc21, the terminal half-life was 24.3 ± 21.4 h (Sprague-Dawley rat female, plasma; intravenous, 5 mg/kg).
With COc1cc2nccc(Oc3ccc(NC(=O)NC4CC4)c(Cl)c3)c2cc1C(N)=O the terminal half-life was 3.79 ± 1.49 h (UPLC-MS/MS; Sprague-Dawley rat, male, plasma; oral, 10 mg/kg, 7 days, with: isavuconazole 20 mg/kg gavage).
CNC(=O)c1cccc(-c2ccc(O[C@H]3O[C@H](CO)[C@@H](O)[C@H](O)[C@@H]3O)c(C)c2)c1 gave a terminal half-life of 0.308 h and 0.301 h and 0.326 h (Sprague-Dawley rat, male, plasma; intravenous, 3 mg/kg).
For CCCc1c(-c2ccc(O)cc2)nn(-c2ccc(O)cc2)c1-c1ccc(O)cc1, the terminal half-life was 3.2 ± 0.9 h (measured: aglycone; rat, Long-Evans, female, ovariectomized, serum; subcutaneous, 2 mg/kg single dose).
CCc1c(-c2ccccc2)c(-c2ccccc2)nn1-c1ccccc1-c1cccc(OCC(=O)O)c1 has a terminal half-life of 3.28 h and 2.95 h and 3 h (Sprague-Dawley rat; oral).
N#CC(Cc1ccc(O)cc1)c1ccc(O)cc1 (stereo not shown) gave a terminal half-life of 4.6 ± 1.6 h (measured: aglycone; rat, Long-Evans, female, ovariectomized, serum; subcutaneous, 2 mg/kg single dose).
The terminal half-life of CNC(=O)c1cccc(-c2ccc([C@@H](O)[C@H]3O[C@H](CO)[C@@H](O)[C@H](O)[C@@H]3O)c(C)c2)c1 is reported as 0.488 h (male Sprague-Dawley rat, plasma; intravenous, 3 mg/kg, group mean).

Excerpt of the above:
The terminal half-life of O=C1c2ccccc2C(=O)N1CCCN1CCN(C(c2ccc(F)cc2)c2ccc(F)cc2)CC1 is reported as 8.48 ± 4.78 h (male Sprague-Dawley rat, whole blood; oral, 10 mg/kg).
